Measurements pooled from the literature.
A part holds a random share of what one study measured.

Study 1
Target: Ras GTPase-activating protein-binding protein 1, RRM domain (G3BP1, Homo sapiens, UniProt Q13283)
Sequence of UniProt Q13283 (whole entry, looked up): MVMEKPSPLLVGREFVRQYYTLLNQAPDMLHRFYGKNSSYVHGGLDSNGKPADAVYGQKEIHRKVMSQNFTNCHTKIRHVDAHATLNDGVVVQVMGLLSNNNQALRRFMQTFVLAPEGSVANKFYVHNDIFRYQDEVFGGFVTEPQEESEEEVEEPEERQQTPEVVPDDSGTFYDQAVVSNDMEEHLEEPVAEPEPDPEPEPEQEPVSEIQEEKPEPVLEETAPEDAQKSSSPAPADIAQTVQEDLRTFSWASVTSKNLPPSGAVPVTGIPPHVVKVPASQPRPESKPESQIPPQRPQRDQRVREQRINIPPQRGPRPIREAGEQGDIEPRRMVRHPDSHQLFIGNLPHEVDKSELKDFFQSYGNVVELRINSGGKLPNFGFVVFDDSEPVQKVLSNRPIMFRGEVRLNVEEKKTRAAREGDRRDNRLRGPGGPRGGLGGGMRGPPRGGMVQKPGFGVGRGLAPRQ
Technique: RNA Bind-n-Seq
Form: RNA
Medium: in vitro
Tested at: 1 µM
Setting: whole 134-nt RNA, ends assumed
Added: 150 mM KCl
Baseline: input library
Reading: higher = stronger binding
| Oligonucleotide | log2 enrichment |
| --- | --- |
| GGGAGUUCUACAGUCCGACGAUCGUUUGAUGAUCGUGGACGGAGUGAUUACGAUGGCAUUGGCAGCCGUGGUGACAGAAGUGGCUUUGGCAAAUUUGAACGUGGUGGAAACAGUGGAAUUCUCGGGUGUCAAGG | 0.936 |
| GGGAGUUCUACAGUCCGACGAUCGCAGGAAGUAAAAACAAAUGGAAAUGCUUCGGAUAGUGGCAGGGGUGGGGGUUGCUAAGGAAAGGGUGGGAUGGGAAAGGGUAAAGAGUUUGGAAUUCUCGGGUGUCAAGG | 1.31 |
| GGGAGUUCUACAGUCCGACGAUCCAACGUUGAAAUGGAUUGGGUGUUGAAGCAUACUGGUCCAAAUAGUCCUGACACGGCCAAUGAUGGCUUUGUACGGCUUAGAGGACUUCCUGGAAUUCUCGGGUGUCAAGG | -0.362 |
| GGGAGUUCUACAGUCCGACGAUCACCUUCACGGCAUGGUGCAACUCCCACCUGCGGAAGGCAGGCACACAGAUCGAGAACAUUGAUGAGGACUUCCGAGACGGGCUCAAGCUCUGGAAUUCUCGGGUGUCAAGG | -0.11 |
| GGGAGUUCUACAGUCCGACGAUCUCAAGUCCUGUGCUACACAUCGUAUGUACCGAAUCGGGCCCGGCCCGGCCCGGGAAAGUAUUAUGUUACGCCGUUCGGAUCUGCACUUCCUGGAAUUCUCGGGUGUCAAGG | -0.691 |
| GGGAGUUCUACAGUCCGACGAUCAGUCCUGUGCUACACAUCGUAUGUACCGAAUCGGGGAAAGGGGUUUGGGGUUUGGGGAAAGUAUUAUGUUACGCCGUUCGGAUCUGCACUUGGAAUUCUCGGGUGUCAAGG | 1.6 |
| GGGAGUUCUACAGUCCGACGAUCCAAGUCCUGUGCUACACAUCGUAUGUACCGAAUCGGGUUUGGGUUUGGGAAAGGGAAAGUAUUAUGUUACGCCGUUCGGAUCUGCACUUCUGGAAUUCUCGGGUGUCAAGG | 0.849 |
| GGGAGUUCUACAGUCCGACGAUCUCCUGUGCUACACAUCGUAUGUACCGAAUCGGGGAAAGGGGAAAGGGGAAAAAAAGGGGAAAGUAUUAUGUUACGCCGUUCGGAUCUGCAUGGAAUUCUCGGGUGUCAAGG | 0.623 |
| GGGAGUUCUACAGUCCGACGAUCCACAGACAACACGCACCCACACAGACACAGAGGGAAGGGGUUGGGAUGGGGACAGGGUGCACAGCAGGGCGCGGUAGGACCCCAGCCCCUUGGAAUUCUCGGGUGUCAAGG | -0.296 |

Study 2
Target: RING finger protein unkempt homolog, zinc fingers 1-6, GST-SBP tag (UNK, Homo sapiens, UniProt Q9C0B0, residues 30-357)
Technique: RNA Bind-n-Seq
Form: RNA
Medium: in vitro
Tested at: not given
Setting: RNA with constant flanks, human and mouse sites, ends assumed
Baseline: input RNA pool
Reading: higher = stronger binding
Target sequence (chain): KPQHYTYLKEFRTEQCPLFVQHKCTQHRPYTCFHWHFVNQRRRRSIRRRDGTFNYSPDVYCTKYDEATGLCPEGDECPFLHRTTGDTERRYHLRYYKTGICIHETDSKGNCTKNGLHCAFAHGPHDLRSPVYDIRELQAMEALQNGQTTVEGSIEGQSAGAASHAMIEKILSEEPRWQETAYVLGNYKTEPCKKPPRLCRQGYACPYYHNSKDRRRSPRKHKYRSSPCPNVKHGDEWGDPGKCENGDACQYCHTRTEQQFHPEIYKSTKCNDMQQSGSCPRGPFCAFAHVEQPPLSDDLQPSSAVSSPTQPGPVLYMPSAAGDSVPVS
| Oligonucleotide | bound/input enrichment [ratio] |
| --- | --- |
| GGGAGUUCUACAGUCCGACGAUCAUCCGUGAAUUGGUGUCACGGGGGCGGAGUGUCCACUUUUCUGAGGCUGAACAGCGCUGCAUAUCUCGUGGCUUCACACCAGCCCAGUUCCAGGCAGCUCUGGAUGAAUAUGAGGAGCUACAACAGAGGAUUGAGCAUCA | 0.0662 |
| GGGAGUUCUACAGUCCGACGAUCAGGCGUCACCUUGAUGGCCUGCAACCCCUCCCUGCCUCAUUCUUAGUUCAAGAUCGUCUUUAGUCUCGCUGCGUCCCUUUCCCUUGCACCUGUUAACAUCUUUAAGGCAGGAGCUGAUGACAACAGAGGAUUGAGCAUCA | 0.933 |
| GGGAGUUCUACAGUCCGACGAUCGCUCCUGGUACACCAGAGGUCAAGGCCGGUGGGGUUUUCUUUUUUUAAUUGGUUGUUGAGAAGUUUCAGAAGUUCGUUUUCCAGCUGUGGUCAUUUCAGACACAUCUGCACCAUAACUCACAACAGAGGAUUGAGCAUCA | 0.398 |
| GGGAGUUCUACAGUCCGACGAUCAAAGAUUGAUCUGUGGGCUGGUGAACUUAUCUGGGUCCCAGUCCGAGCAGCAGAGGAGAUUAGCACAGCGCUUGCUGGAGAAUGAUAUCUGUCAAAAGAAACACUUGGAGAGCACUGAGUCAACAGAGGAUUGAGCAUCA | 0.208 |
| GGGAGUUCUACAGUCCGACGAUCGACAGACACAUACCUCUUGCUCUACCACGACAAAAUAGUACGGGGCAGUCCCAAAUCCGAAAACUGGACCAUUCUGGGUUAGGUGCCCGAGCCAAAGCACCCCCAUCUCUGCCACACAGUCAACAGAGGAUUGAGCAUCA | 0.274 |
| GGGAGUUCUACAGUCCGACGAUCGCUGUGUUGCUAACUCUUUCGCUCAUGUUAGUUUGGUUAUGUGGAUCUGUUGUCUAAGAGCCCUCACUUUUUUCUUUUUCUUUUUUUUUUCUUUUUUUUGGUUCUUUCUGACUGCUUUGUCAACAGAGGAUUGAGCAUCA | 2.03 |
| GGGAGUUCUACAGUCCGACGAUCGUGAGUAAGUAGUUGGGUAUAAGAUCUGAACUUUUCAUCUGCAGAGGCAAGAAAAAUAUUUGACAUUGUGACUUGACUGUGGAAGAUGAUGGUUGCAUGUUUCUAGUUUGUAUAUGUUUCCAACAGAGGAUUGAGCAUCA | 0.583 |
| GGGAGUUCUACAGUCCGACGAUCAAGAUCCUCUCGGUAAAUGGCCAAGAUCUGAAGAACCUGCUGCACCAAGAUGCUGUAGACCUCUUCCGUAAUGCGGGAUGUGCUGUGUCCCUGAGAGUACAGCACAGGUUGCUGGUUGUUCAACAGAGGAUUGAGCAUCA | 0.0876 |

Study 3
Target: Histone acetyltransferase KAT6A, winged helix 1, GST fusion (KAT6A, Homo sapiens, UniProt Q92794, residues 1-85)
Technique: protein binding microarray
Form: double-stranded DNA, one strand shown
Medium: in vitro
Tested at: not given
Setting: 8-mer, flanks averaged, mean of 2 arrays, mostly near background
Baseline: not given
Reading: higher = stronger binding
Target sequence (chain): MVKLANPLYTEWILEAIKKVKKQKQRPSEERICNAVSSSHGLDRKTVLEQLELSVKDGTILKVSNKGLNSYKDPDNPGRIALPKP
| Oligonucleotide | E-score |
| --- | --- |
| CGGTTCCC | 0.179 |
| CGACATGA | 0.0151 |
| TCGCTGAA | 0.00247 |
| GCAAAAAC | 0.0035 |
| AGGAACCG | -0.00541 |
| ATAGAGGG | -0.0618 |
| CAACCGGG | 0.242 |
| CAATATGC | 0.000855 |
| AGAGGTCC | 0.0842 |
| AAATGACT | -0.208 |
| GAGGCTGA | -0.253 |
| AAACGACG | 0.0348 |
| CAAAAGTC | -0.0999 |
| CGACCTGC | 0.17 |
| TCACTAAA | -0.183 |
| AGGTGCTC | -0.124 |
| ATGCCCTC | -0.067 |
| ACCCTTAA | -0.0929 |
| CGCGCTAA | 0.384 |
| CGCCATGA | 0.108 |

Study 4
Target: RNA binding protein fox-1 homolog 2, RRM domain, GST-SBP tag (RBFOX2, Homo sapiens, UniProt O43251-10, residues 100-194)
Technique: RNA Bind-n-Seq
Form: RNA
Medium: in vitro
Tested at: 365 nM
Setting: natural RNA segment, single round, ends assumed
Baseline: no-protein control
Reading: higher = stronger binding
Target sequence (chain): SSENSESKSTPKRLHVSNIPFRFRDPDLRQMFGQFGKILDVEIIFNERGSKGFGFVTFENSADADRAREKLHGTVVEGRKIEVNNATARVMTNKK
| Oligonucleotide | RBNS enrichment (R) |
| --- | --- |
| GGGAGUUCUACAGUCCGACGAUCGAGAGGAUUUCCUGAGACUGGUUUGGAUCUCCCUGCAUGACAGUCCCCCAGAAACUUAGUGAGUCCUGGACUGGACUGAACAUCCAGAAAGCUUCCCUGCAAUCUUGGGGUGGAAUUCUCGGGUGCCAA | 5.11 |
| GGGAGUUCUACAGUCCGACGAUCGGCCAACUAAUAUAAAAUACCAUUGUUAAAGAAUGGUACUUUUAUAAACAUUAGUGUAUUUAUUUCCUAUGUGUUAAUAUGAAGAUCAGAAAUUAUUUUUUGCACUUUGGUGGAAUUCUCGGGUGCCAA | 0.701 |
| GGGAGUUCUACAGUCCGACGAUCAGGGAGAACUGGUUGUGUAUUUAAGAGAAAUGAGAGUGCAUUGCAAAGUAGUUUCCCAAGGCAUUUCCCCUAUUGUUUACAUGGUCAAAAGGAAAAUCAAAAUCACUUCUUGGAAUUCUCGGGUGCCAA | 0.392 |
| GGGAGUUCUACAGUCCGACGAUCUGGAUCUGAAAGCAACAAUCGCCAGCCCCUACUGUCGUACCAGUAGAAACCUCAUCUUGGGUACAAGGAAGGAUAGUUCUGUCACUUUAACUUGUUUCAAUGCCUACUUUUGGAAUUCUCGGGUGCCAA | 0.598 |
| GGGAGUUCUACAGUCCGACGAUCUUCUCUUUUGUUGUCUUAUCAAAGUUUAAUGGAGACACUUUCAUAAUUGUUGUUGUGUGUACAUUUGAUUUUCAUAAAGAUGGUAGUAAGUCAAUGCAUUAACCCUCAUCUGGAAUUCUCGGGUGCCAA | 0.369 |
| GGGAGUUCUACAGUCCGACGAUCGUCCAUCAGCGCUGACCUUCCGGGGGCCCAGAGCUUCCCAGCCCUGAGUCAAGCUGGCCAUGAACGCGUACACUUCAGUUCAGCAGGAUGGGCUGGAGAGCCUCUCUGUGUGGAAUUCUCGGGUGCCAA | 0.275 |
| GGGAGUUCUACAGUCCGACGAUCCUUGCUGUGUACAUCAAGAAAAUUCAGUUGAAUUCUGAGAUUAGCAUGGUUAUUAGCACUUUAUGCUGGGAGCCAGCAGAGUGGUGGACUUCCGUGCUGACUAAGCUGUGUGGAAUUCUCGGGUGCCAA | 0.277 |
| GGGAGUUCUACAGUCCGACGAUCUGUUGUUGAAAUGAAAGGUAUUUUGGGGUUAUUUAUUAUGAAAACAACAUGCUCUUAAUGUUGAUUUUACAAUAUGAAGAGAUUAUUUAAAUAAAUUAUUGUUUUCAUUGUGGAAUUCUCGGGUGCCAA | 0.807 |

For quick reference, copied from above (study 3):
| Oligonucleotide | E-score |
| --- | --- |
| GAGGCTGA | -0.253 |
| AAACGACG | 0.0348 |
| CAAAAGTC | -0.0999 |
| CGACCTGC | 0.17 |
| TCACTAAA | -0.183 |
